Assay results of several laboratories.
A part holds a random share of what one study measured.
UniProt Q13554, sequence (whole entry, looked up): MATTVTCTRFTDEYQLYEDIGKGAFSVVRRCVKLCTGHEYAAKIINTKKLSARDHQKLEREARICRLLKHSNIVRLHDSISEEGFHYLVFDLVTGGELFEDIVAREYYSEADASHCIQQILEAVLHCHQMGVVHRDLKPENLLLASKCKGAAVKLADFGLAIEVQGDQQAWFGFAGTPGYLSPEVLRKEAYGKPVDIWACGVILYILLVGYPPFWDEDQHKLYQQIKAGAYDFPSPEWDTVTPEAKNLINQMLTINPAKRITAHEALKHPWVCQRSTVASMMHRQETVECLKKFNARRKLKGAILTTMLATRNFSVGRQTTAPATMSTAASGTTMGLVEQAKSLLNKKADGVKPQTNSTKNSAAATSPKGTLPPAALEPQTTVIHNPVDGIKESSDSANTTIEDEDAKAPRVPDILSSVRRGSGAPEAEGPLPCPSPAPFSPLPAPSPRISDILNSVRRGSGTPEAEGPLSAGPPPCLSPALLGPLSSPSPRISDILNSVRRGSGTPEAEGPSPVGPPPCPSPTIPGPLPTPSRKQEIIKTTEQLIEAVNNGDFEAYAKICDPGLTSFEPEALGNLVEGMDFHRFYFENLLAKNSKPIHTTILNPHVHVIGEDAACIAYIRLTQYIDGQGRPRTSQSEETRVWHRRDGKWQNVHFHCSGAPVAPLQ
UniProt P00519, sequence (whole entry, looked up): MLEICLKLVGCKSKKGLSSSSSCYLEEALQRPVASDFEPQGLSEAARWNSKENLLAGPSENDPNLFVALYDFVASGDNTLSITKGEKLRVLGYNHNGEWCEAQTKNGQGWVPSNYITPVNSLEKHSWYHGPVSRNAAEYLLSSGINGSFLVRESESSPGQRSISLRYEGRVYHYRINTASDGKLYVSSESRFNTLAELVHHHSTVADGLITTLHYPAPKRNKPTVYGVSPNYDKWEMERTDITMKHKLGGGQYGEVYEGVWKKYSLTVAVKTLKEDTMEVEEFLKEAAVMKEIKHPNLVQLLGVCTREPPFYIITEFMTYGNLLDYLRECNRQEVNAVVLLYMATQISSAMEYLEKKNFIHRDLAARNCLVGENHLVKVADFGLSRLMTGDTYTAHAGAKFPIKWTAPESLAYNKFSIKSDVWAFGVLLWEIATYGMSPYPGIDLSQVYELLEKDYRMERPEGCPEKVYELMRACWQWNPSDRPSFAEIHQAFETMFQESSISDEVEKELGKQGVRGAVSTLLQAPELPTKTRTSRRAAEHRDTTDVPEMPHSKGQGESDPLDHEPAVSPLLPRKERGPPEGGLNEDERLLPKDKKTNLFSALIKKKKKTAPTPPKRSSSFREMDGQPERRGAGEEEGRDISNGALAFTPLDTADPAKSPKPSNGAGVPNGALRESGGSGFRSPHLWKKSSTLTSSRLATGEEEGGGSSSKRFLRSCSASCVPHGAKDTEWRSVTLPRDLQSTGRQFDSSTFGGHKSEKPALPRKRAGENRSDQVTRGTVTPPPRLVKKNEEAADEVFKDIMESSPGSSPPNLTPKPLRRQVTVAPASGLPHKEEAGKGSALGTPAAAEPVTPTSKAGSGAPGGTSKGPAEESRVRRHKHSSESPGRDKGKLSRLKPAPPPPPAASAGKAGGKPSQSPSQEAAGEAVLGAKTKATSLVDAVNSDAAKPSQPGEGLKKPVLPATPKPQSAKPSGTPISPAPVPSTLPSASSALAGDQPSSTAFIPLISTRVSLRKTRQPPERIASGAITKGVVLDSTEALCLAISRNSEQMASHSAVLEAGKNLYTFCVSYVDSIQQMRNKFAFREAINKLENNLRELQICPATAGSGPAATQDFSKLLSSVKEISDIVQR
UniProt O94921, sequence (whole entry, looked up): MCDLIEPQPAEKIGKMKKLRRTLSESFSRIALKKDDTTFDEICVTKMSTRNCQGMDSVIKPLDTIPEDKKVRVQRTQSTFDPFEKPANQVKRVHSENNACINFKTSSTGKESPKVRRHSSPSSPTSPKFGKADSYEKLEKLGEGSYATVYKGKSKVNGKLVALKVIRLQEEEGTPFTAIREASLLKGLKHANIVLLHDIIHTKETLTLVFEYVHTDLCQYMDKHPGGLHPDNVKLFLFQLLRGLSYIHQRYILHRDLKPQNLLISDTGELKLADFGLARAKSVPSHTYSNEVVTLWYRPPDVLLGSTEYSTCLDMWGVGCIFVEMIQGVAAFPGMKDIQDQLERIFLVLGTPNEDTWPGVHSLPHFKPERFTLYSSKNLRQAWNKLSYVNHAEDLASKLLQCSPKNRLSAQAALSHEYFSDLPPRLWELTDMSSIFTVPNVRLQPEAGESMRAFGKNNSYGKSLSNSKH
UniProt P49674, sequence (whole entry, looked up): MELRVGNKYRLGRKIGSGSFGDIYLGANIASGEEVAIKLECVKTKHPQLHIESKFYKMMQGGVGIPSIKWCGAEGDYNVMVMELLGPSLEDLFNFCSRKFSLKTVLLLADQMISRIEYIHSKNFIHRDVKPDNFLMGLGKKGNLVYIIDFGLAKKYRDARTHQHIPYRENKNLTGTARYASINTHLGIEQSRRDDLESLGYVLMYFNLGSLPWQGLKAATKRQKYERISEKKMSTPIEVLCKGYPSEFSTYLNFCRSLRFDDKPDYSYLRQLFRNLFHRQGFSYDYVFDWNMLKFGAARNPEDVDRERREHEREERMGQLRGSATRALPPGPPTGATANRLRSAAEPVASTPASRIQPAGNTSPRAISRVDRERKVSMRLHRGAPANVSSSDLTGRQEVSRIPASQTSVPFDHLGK
UniProt O43293, sequence (whole entry, looked up): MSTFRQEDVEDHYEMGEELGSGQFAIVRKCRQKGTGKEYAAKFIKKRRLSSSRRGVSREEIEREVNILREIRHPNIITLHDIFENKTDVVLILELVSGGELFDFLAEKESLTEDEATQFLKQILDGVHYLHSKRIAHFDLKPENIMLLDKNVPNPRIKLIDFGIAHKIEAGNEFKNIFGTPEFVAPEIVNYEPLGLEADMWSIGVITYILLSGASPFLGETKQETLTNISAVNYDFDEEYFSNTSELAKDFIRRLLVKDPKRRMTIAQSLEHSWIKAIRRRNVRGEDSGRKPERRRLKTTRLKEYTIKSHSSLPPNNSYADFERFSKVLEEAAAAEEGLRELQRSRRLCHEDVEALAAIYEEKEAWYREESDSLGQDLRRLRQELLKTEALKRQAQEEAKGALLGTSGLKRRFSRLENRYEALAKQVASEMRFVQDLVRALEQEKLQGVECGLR
UniProt Q8IW41, sequence (whole entry, looked up): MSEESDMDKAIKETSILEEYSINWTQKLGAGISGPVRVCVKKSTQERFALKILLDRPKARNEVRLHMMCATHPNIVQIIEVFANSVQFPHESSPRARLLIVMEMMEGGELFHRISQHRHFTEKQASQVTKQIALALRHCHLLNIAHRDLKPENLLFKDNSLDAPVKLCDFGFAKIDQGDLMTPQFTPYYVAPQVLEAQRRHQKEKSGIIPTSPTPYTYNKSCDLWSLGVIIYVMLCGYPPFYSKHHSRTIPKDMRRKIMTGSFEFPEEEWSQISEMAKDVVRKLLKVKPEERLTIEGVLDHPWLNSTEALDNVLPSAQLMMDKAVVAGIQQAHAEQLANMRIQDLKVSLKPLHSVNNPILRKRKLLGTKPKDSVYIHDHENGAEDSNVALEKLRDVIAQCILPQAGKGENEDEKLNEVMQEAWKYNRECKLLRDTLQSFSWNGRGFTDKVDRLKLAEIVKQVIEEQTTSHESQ
UniProt Q13153, sequence (whole entry, looked up): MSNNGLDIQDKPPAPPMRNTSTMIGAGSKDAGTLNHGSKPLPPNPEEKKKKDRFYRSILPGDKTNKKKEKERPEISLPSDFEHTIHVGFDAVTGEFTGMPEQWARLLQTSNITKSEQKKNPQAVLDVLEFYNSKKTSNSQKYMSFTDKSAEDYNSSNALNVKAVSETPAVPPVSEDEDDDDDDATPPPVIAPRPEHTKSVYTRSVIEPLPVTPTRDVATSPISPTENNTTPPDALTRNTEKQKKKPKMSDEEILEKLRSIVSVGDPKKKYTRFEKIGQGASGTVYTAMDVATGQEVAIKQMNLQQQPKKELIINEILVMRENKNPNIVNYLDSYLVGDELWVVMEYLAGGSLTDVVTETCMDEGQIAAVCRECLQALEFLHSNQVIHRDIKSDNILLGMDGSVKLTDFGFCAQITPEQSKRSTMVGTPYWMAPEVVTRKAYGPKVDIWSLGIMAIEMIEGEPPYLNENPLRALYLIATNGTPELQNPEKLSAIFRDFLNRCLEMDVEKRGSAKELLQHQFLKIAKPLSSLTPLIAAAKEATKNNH
UniProt Q9Y616, sequence (whole entry, looked up): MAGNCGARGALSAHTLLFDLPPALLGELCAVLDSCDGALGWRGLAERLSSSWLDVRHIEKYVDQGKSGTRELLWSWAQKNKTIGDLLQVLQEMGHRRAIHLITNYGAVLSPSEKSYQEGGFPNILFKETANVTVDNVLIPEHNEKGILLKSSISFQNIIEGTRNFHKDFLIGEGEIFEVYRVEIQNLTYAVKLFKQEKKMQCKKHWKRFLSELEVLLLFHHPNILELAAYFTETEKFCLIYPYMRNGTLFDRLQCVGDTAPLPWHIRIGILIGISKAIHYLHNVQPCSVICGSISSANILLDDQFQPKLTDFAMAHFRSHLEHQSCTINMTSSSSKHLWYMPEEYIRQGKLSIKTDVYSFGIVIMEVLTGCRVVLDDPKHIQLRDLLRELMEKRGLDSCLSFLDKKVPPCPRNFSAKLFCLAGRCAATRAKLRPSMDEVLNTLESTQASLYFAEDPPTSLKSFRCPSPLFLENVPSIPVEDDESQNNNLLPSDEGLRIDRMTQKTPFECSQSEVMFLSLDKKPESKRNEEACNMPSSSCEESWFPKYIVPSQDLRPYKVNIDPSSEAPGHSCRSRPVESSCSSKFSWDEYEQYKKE

Block 1
Organism: Sarcocystis neurona
Effect on: parasite growth
Concentration: 10 µM
Time: 96 h
Setting: first screen
Baseline: untreated
For CN(CCOc1ccc(CC2SC(=O)NC2=O)cc1)c1ccccn1 (stereo not shown), “log2 fold change” read -0.21.
For Nc1nc(=O)c2nc(CNc3ccc(C(=O)N[C@@H](CCC(=O)O)C(=O)O)cc3)cnc2[nH]1, “log2 fold change” read 0.36.
For CN(C)C(=O)C(CCN1CCC(O)(c2ccc(Cl)cc2)CC1)(c1ccccc1)c1ccccc1, “log2 fold change” read -0.43.
Under “log2 fold change”, O=C1CN2Cc3c(ccc(Cl)c3Cl)N=C2N1 is recorded as 0.31.
For CCC(=O)NS(=O)(=O)c1ccc(-c2c(-c3ccccc3)noc2C)cc1, “log2 fold change” read 0.00861.
Cn1nnc2c(C(N)=O)ncn2c1=O — result for “log2 fold change”: 0.05.
O=C(O)COCCN1CCN(C(c2ccccc2)c2ccc(Cl)cc2)CC1 (stereo not shown) — result for “log2 fold change”: -0.96.
Under “log2 fold change”, CC(=O)OCC[N+](C)(C)C is recorded as 0.19.

Block 2
Species: human
Matrix: microsomes or S9
Concentration: 2 µM
Time: 0.5 h
NC(N)=NC(=O)c1cc2cc(Br)ccc2s1 gave a remaining compound of 83%.
For c1ccn2c(-c3noc(C4CCn5c(cnc5C5CCCCC5)C4)n3)cnc2c1 (stereo not shown), the remaining compound was 36.9%.
CC(C)(C)OC(=O)N1CCCn2c1nn(-c1cc(-c3cccc(C#N)c3)ccc1N)c2=O gave a remaining compound of 41.7%.
The remaining compound of CC(C)(C)c1ccc(Cn2ncc3ccccc32)cc1 is reported as 2.6%.
CC(C)Nc1ncnc2onc(-c3cc(F)cc(F)c3)c12 gave a remaining compound of 65.3%.
CCCNC(=O)[C@H](CC(C)C)NC(=S)NCCC gave a remaining compound of 67%.
The remaining compound of O=C(Nc1ccc2nncn2c1)c1cccc2cc[nH]c12 is reported as 67.3%.
COc1ccc(C2(C)CC(C)(C)Nc3ccccc32)cc1 (stereo not shown) has a remaining compound of 12.4%.
O=c1[nH]c(N2CCc3ccccc3C2)nc2ncc3c(c12)CCC3 gave a remaining compound of under 1%.
With CC(=O)Nc1nc2ccc(-c3nn(Cc4cc5ccccc5nc4-c4ccccc4C)c4nc(N)ncc34)cc2s1 the remaining compound was 22.2%.
For Cc1c(C(=O)NC2CCN(Cc3ccc(OCCCN(C)C)cc3)CC2)cnn1-c1ccccc1, the remaining compound was over 100%.
For CCC(C)(NCc1nnc(-c2ccc(F)cc2)o1)c1nc(C)cs1 (stereo not shown), the remaining compound was 25.7%.

Block 3
Structure (SMILES): Cc1nccc(COC(=O)N2C[C@@H]3[C@@H](CNC(=O)c4ccc5[nH]nnc5c4)[C@@H]3C2)n1
Effect on: cell-free assay
Technique: competition with immobilised ligand
Concentration: 1 µM
For Interferon-induced, double-stranded RNA-activated protein kinase (EIF2AK2, Homo sapiens, UniProt P19525): remaining binding read 100%.
For Casein kinase I isoform epsilon (CSNK1E, Homo sapiens, UniProt P49674): remaining binding read 100%.
It gave 100% for remaining binding (Cyclin-G-associated kinase (GAK, Homo sapiens, UniProt O14976)).
Serine/threonine-protein kinase PAK 1 (PAK1, Homo sapiens, UniProt Q13153) — remaining binding: 92%.
For Homeodomain-interacting protein kinase 3 (HIPK3, Homo sapiens, UniProt Q9H422): remaining binding read 76%.
MAP kinase-activated protein kinase 5 (MAPKAPK5, Homo sapiens, UniProt Q8IW41) — remaining binding: 97%.
Tyrosine-protein kinase ABL1, phosphorylated (ABL1, Homo sapiens, UniProt P00519) — remaining binding: 95%.
For Cyclin-dependent kinase 14 (CDK14, Homo sapiens, UniProt O94921): remaining binding read 100%.
The remaining binding was 90% (Calcium/calmodulin-dependent protein kinase type II subunit beta (CAMK2B, Homo sapiens, UniProt Q13554)).
For Death-associated protein kinase 3 (DAPK3, Homo sapiens, UniProt O43293): remaining binding read 92%.
Receptor-type tyrosine-protein kinase FLT3 (FLT3, Homo sapiens, UniProt P36888) — remaining binding: 89%.
The remaining binding was 100% (Interleukin-1 receptor-associated kinase 3 (IRAK3, Homo sapiens, UniProt Q9Y616)).
Phosphatidylinositol 5-phosphate 4-kinase type-2 beta (PIP4K2B, Homo sapiens, UniProt P78356) — remaining binding: 100%.
It gave 77% for remaining binding (Cyclin-dependent kinase 2 (CDK2, Homo sapiens, UniProt P24941)).
The remaining binding was 79% (STE20/SPS1-related proline-alanine-rich protein kinase (STK39, Homo sapiens, UniProt Q9UEW8)).
The remaining binding was 100% (Serine/threonine-protein kinase RIO3 (RIOK3, Homo sapiens, UniProt O14730)).
Serine/threonine-protein kinase WNK4 (WNK4, Homo sapiens, UniProt Q96J92) — remaining binding: 100%.

Block 4
Target: Serine/threonine-protein kinase D2 (PRKD2, Homo sapiens, UniProt Q9BZL6)
Effect on: enzyme activity
Action: inhibitor
Concentration: 0.5 µM
Baseline: control
Construct (Q9BZL6 1-878): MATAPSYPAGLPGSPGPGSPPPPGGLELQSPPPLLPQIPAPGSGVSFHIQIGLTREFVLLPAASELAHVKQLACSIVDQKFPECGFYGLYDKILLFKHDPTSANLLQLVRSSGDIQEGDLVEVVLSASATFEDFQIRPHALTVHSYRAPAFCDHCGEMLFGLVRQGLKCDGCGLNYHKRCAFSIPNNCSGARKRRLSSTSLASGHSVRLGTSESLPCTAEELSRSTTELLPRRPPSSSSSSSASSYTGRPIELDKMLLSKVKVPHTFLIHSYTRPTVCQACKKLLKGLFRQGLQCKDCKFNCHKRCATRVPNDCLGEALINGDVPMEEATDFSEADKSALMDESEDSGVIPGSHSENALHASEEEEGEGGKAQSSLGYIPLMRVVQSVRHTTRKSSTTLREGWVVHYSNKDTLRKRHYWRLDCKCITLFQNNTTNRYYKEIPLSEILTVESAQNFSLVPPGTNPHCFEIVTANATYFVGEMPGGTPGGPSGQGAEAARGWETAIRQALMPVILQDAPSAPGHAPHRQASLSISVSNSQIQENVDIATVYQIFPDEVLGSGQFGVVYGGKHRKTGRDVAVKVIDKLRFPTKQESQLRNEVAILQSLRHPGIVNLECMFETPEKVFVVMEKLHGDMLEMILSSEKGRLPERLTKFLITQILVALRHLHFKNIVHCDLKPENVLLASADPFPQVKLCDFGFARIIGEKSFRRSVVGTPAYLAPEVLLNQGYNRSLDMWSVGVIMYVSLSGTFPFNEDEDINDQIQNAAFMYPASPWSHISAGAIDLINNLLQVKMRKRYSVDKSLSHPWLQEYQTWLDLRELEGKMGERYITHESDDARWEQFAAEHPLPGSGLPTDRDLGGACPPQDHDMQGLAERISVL
COc1cccc(-c2cc(=O)c3ccccc3o2)c1N has a remaining activity of 103%.
For COc1ccc2c(c1)c(C1=C(c3c[nH]c4ccccc34)C(=O)NC1=O)cn2CCCN(C)C, the remaining activity was 92.3%.
O=C(c1cc2cc(O)ccc2[nH]1)c1cc2cc(O)ccc2[nH]1 gave a remaining activity of 71.7%.
With Cc1ccc(S(=O)(=O)/C=C/C#N)cc1 the remaining activity was 98.1%.
The remaining activity of CCCNC(=O)Nc1ccc(Oc2ncnc3cc(OC)c(OC)cc23)cc1Cl is reported as 94.3%.
The remaining activity of c1ccc2c(-c3ccncc3)c[nH]c2c1 is reported as 95.7%.
The remaining activity of CN1CCN(c2ccc3nc(-c4c(N)c5c(F)cccc5[nH]c4=O)[nH]c3c2)CC1 is reported as 66.2%.
O=C1Cc2c([nH]c3ccc(Br)cc23)-c2ccccc2N1 gave a remaining activity of 100%.
The remaining activity of O=Nc1c(-c2c(O)[nH]c3cc(Br)ccc23)[nH]c2ccccc12 is reported as 94.1%.
With O=c1cc(N2CCOCC2)oc2c(-c3ccccc3)cccc12 the remaining activity was 93.8%.
O=C1Nc2ccc(Br)cc2/C1=C/c1cc2c([nH]1)CCCC2 gave a remaining activity of 95.8%.
O=C1NC(=O)c2c1c1c3ccccc3[nH]c1c1[nH]c3cc(Br)ccc3c21 has a remaining activity of 45.9%.
For c1ccc(-c2n[nH]c3c2oc2ccccc23)cc1, the remaining activity was 86.9%.
For CN(C)S(=O)(=O)c1ccc2c(c1)/C(=C/c1cc3c([nH]1)CCCC3)C(=O)N2, the remaining activity was 102%.
The remaining activity of CCCCc1c(-c2ccc(OC)cc2)[nH]c2nccnc12 is reported as 101%.
N#Cc1cnc2cnc(NCc3cccnc3)cc2c1Nc1ccc(F)c(Cl)c1 gave a remaining activity of 99.7%.
Oc1cccc(-c2nc(N3CCOCC3)c3oc4ncccc4c3n2)c1 has a remaining activity of 93.8%.
O=C1Nc2ccccc2/C1=C\c1c(Cl)[nH]c2ccccc12 gave a remaining activity of 90.2%.
